{"data": "Assay results from different studies", "target": "Cannabinoid receptor 1 (CNR1, Homo sapiens, UniProt P21554)", "note": "Compare with care: the assays were run in different laboratories. Several values in a cell are separate wells, animals, samples, runs or records. ± gives the spread as reported.", "sequence of UniProt P21554 (whole entry, looked up)": "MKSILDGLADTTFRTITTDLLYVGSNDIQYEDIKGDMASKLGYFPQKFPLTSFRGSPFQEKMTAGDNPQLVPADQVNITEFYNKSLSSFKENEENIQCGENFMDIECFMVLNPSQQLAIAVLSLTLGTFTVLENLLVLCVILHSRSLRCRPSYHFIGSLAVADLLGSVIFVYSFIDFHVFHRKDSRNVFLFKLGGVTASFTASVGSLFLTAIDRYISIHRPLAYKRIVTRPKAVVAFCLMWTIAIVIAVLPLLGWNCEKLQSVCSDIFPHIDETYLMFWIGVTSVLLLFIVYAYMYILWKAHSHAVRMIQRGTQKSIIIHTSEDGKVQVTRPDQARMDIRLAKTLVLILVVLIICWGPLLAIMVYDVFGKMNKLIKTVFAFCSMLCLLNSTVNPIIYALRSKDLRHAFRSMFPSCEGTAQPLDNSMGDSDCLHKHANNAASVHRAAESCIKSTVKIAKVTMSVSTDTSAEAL"}
{"Structure (SMILES)": "CCc1c(C(=O)NCCc2ccc(N3CCCCC3)cc2)[nH]c2ccc(N=C=S)cc12", "test": "β-arrestin1 recruitment, negative allosteric modulator, BRET", "system": "HEK293A", "setting": "30 min, with: anandamide 500 nM", "measurement": "IC50", "value": "48.6 nM"}
{"Structure (SMILES)": "O=C(NN1CCCCC1)c1nn(-c2ccc(Cl)cc2Cl)c2c1CCCc1cc(Cl)ccc1-2", "test": "ligand displacement, radioligand", "setting": "cell membranes", "measurement": "Ki", "value": "4.6 nM"}
{"Structure (SMILES)": "CCc1c(C(=O)NCCc2ccc(N3CCCCC3)cc2)[nH]c2ccc(Cl)cc12", "test": "cAMP level, negative allosteric modulator", "system": "HEK293 CRE reporter", "setting": "4 h, with: anandamide 500 nM and forskolin 10 µM", "measurement": "IC50", "value": "882 nM"}
{"Structure (SMILES)": "CC1=CC[C@@H]2[C@@H](C1)c1c(O)cc(CC#CCCCNS(C)(=O)=O)cc1OC2(C)C", "test": "cAMP, agonist", "measurement": "EC50", "value": "40.4 nM"}
{"Structure (SMILES)": "CCC/C=C/CC1(C)COc2cc(C(=O)N3CCCCC3)ccc21 (stereo not drawn)", "test": "GTPγS binding, agonist", "setting": "cell membranes", "measurement": "EC50", "value": "856 nM"}
{"Structure (SMILES)": "CCC(=C(c1ccc(OCCN2CCCC2)cc1)c1ccc(OCCN2CCCC2)cc1)c1ccccc1", "test": "ligand displacement, radioligand", "setting": "cell membranes", "measurement": "Ki", "value": "732 nM"}
{"Structure (SMILES)": "COC(=O)c1ccc2c(C(CC(F)(F)F)c3cccs3)c(-c3ccccc3)[nH]c2c1 (single isomer, unassigned; (-))", "test": "positive allosteric modulator", "setting": "with: EC20 CP 55940", "measurement": "EC50", "value": "113 ± 62 nM"}
{"Structure (SMILES)": "CC(C)[C@H](NC(=O)c1nn(Cc2ccc(F)cc2)c2ccccc12)C(N)=O", "test": "GIRK channel fluorescence, agonist", "system": "AtT20 expressing CB1", "measurement": "EC50", "value": "18 nM and 18.1 nM"}
{"Structure (SMILES)": "C[C@]1(Cc2ccccc2)COc2cc(C(=O)N3CCCCC3)ccc21", "test": "GTPγS binding, agonist", "setting": "cell membranes", "measurement": "EC50", "value": "> 10000 nM"}
{"Structure (SMILES)": "COC(=O)[C@@H](NC(=O)c1nn(CCCCF)c2ccccc12)C(C)(C)C", "test": "GIRK channel fluorescence, agonist", "system": "AtT20 expressing CB1", "measurement": "EC50", "value": "4.97 ± 2.6 nM"}
{"Structure (SMILES)": "CCCCCc1ccc(-n2nc(C(=O)NN3CCCCC3)c(C)c2-c2ccc(Cl)cc2)cc1", "test": "ligand displacement, radioligand", "setting": "cell membranes", "measurement": "Ki", "value": "83.4 nM"}
{"Structure (SMILES)": "CCCCCn1cc(C(=O)C2C(C)(C)C2(C)C)c2ccccc21", "test": "GIRK channel fluorescence, agonist", "system": "AtT20 expressing CB1", "measurement": "EC50", "value": "532 ± 33.9 nM"}
{"Structure (SMILES)": "CCCCC(C)(C)c1cc(O)c2c(c1)OC(C)(C)C1CC=C(C)CC21 (stereo not drawn)", "test": "ligand displacement, radioligand", "setting": "cell membranes", "measurement": "Ki", "value": "29.9 nM"}
{"Structure (SMILES)": "CC1(C)C(C(=O)c2cn(CCCCCF)c3ccccc23)C1(C)C", "test": "GIRK channel fluorescence, agonist", "system": "AtT20 expressing CB1", "measurement": "EC50", "value": "214 ± 14.9 nM"}
{"Structure (SMILES)": "CCCCCCC[C@@H](C/C=C/CCC(=O)N(C)C/C(=C/Cl)C/C(=C\\C(=O)N1CC(O)CC1=O)OC)OC (stereo partly drawn)", "test": "cAMP, agonist", "measurement": "EC50", "value": "5300 nM"}
{"note": "Excerpt of the above:"}
{"Structure (SMILES)": "CCc1c(C(=O)NCCc2ccc(N3CCCCC3)cc2)[nH]c2ccc(Cl)cc12", "test": "cAMP level, negative allosteric modulator", "system": "HEK293 CRE reporter", "setting": "4 h, with: anandamide 500 nM and forskolin 10 µM", "measurement": "IC50", "value": "882 nM"}
